Measurements gathered from unrelated publications.
Lines come from different studies, so protocols differ. Several values in a cell are separate wells, animals, samples, runs or records.
Target: Tyrosine-protein kinase Fes/Fps (FES, Homo sapiens, UniProt P07332)
Sequence of UniProt P07332 (whole entry, looked up): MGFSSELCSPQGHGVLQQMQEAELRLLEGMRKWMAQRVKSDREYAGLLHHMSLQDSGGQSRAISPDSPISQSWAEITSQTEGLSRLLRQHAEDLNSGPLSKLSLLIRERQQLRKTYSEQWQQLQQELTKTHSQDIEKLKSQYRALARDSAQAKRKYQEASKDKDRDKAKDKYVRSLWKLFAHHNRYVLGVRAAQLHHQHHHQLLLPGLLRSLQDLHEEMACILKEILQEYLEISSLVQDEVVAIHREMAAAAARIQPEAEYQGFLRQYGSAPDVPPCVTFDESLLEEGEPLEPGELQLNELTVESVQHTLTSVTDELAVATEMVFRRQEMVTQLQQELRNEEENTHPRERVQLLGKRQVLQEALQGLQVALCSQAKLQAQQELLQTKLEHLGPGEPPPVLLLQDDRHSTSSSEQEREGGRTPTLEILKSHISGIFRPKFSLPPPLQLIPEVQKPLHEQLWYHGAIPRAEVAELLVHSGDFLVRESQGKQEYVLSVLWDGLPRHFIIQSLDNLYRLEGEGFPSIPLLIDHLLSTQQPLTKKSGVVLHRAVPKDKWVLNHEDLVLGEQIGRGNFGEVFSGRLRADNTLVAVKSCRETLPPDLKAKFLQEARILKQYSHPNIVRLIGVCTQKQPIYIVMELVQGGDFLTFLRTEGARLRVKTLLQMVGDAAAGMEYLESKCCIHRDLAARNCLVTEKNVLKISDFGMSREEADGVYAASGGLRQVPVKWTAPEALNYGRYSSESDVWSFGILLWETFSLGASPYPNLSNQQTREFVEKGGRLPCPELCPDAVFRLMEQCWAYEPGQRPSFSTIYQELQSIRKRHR

SMILES = Nc1ncc(-c2cc(-c3cnn(CC(F)(F)F)c3)ncc2F)nc1C(=O)NC1CNCC(F)C1 (stereo not drawn); test = enzyme activity; setting = 1 µM; how to read = baseline: DMSO control; quantity = remaining activity; result = 90%
SMILES = C=CC(=O)Nc1cccc(-c2cnc3[nH]cc(C(=O)NC(C)(C)C)c3n2)c1; test = enzyme activity, inhibitor; setting = 0.1 µM; quantity = inhibition; result = 8%
SMILES = CN1CC[C@@H](COc2cnc(C#N)cc2-c2ccn3nc(NC(=O)C4CC4)cc3c2)C1; test = enzyme activity, inhibitor; setting = 1 µM; quantity = inhibition; result = -5%
SMILES = COc1c(OCCCN2CCOCC2)ccc2c1N=C(NC(=O)c1cnc(N)nc1)N1CCN=C21; test = kinase activity, inhibitor; setting = 1 µM; how to read = baseline: untreated control; quantity = remaining activity; result = 105%
SMILES = Cc1cccc(O[C@H]2CCC[C@@H](C(C)CNCc3ccncc3)C2)c1 (relative stereo); test = enzyme activity, inhibitor; setting = 1 µM; quantity = inhibition; result = 2%
SMILES = Cc1ccc(-c2c(/C=C(\C#N)C(=O)NC(C)C)n(CCCO)c3ncnc(N)c23)cc1; test = cell-free assay, competition with immobilised ligand; setting = 1 µM; quantity = remaining binding; result = 98%
SMILES = NC(=O)[C@@H](O)C[C@H]1CCc2sc3ncnc(O[C@H]4CC[C@H](N5CCOCC5)CC4)c3c21; test = enzyme activity, inhibitor; setting = 10 µM; quantity = inhibition; result = 15%
SMILES = CCN1CCN(Cc2ccc(C(=O)Nc3ccc(C)c(NCc4cnc5[nH]ccc5c4OC)c3)cc2C(F)(F)F)CC1; test = binding, competition with immobilised ligand; setting = 1 µM; quantity = remaining binding; result = 8.2%
SMILES = C[C@H]1CN(C(=O)c2cn(-c3ccnc(N)n3)c3cc(C#CC4(O)CCCCC4)ccc23)CCN1; test = enzyme activity, inhibitor, FRET; setting = 1 µM; quantity = inhibition; result = 103%
SMILES = COCC12C(=O)NC3C4(C(OC)CC1O)C1CC5(O)C(OC)C(O)C(OC(C)=O)(C1C5OC(=O)c1ccccc1)C3(O)C(OC)C24 (stereo not drawn); test = kinase activity, inhibitor, ProQinase kinase profiling; setting = 25 µM; how to read = baseline: control; quantity = remaining activity; result = 105% and 106%
SMILES = CNC(=O)C[C@H](Cc1ccc(C#N)cc1)NC(=O)c1cc(-c2ccc(CN[C@H](C)c3ccc(C)cc3)o2)ccc1Cl; test = enzyme activity, inhibitor; setting = 1 µM; quantity = activity vs control; result = 99%
SMILES = Nc1ncc2c(n1)-c1c([nH]c3ccc(C4=CCOCC4)cc13)CCC2; test = binding, competition with immobilised ligand; setting = 1 µM; quantity = remaining binding; result = 99%
SMILES = COc1cc(Nc2nccc(-c3cnn4nc(OC)ccc34)n2)cc(C(F)(F)F)c1; test = binding, competition with immobilised ligand; setting = 1 µM; quantity = remaining binding; result = 84%
SMILES = C=CC(=O)N1CCc2ccc(-n3c(=O)ccc4cnc5ccc(-c6cnn(C)c6)cc5c43)cc21; test = KINOMEscan; setting = 1 µM; how to read = baseline: DMSO control; quantity = remaining binding; result = 94%
SMILES = O=C=[N][Ru-4]123([n]4c5ccc(O)cc5c5c6c(c7cc(F)c[n+]1c7c54)C(=O)NC6=O)[S+]1CC[S+]2CC[S+]3CC1 (stereo not drawn); test = enzyme activity; setting = 100 nM, human enzyme, with: 10 µM ATP; how to read = baseline: untreated; quantity = remaining activity; result = 97%

Some of these lines once more:
SMILES = NC(=O)[C@@H](O)C[C@H]1CCc2sc3ncnc(O[C@H]4CC[C@H](N5CCOCC5)CC4)c3c21; test = enzyme activity, inhibitor; setting = 10 µM; quantity = inhibition; result = 15%
